Results pooled from the literature.
Lines come from different studies, so protocols differ. Numbers after ± are the reported error. Converted amounts (≈) assume the structure as drawn.

| SMILES | organism | test | system | conditions | measurement | result |
| --- | --- | --- | --- | --- | --- | --- |
| O=C(C1CCN(c2nnnn2-c2ccccc2)CC1)N1CCCc2ccccc21 | Plasmodium falciparum | parasite reduction ratio | 3D7 | 10 x IC50 | lag phase | 48 h |
| Cc1ccc2nc(-c3ccc(F)c(F)c3)c(CN3CCN(c4cccc(C(F)(F)F)c4)CC3)n2c1 | Trypanosoma cruzi |  | 3T3 host cells, Tulahuen beta-galactosidase | 6 days | EC50 | 1600 nM |
| COc1ccc(Nc2c(C#N)cnc3ccc(Cl)cc23)cc1 | Trypanosoma cruzi | intracellular amastigote growth | mouse cardiomyocytes, Y, amastigote | 10 µM, 72 h | inhibition | 64% |
| COc1cc(/C=C/c2cc(/C=C/c3ccc(O)c(OC)c3)[nH]n2)ccc1O | Spodoptera frugiperda | cell growth or viability, MTT | Sf9 | 100 µM, 72 h | inhibition | 71.3% |
| Cc1ccc2nc(-c3ccccc3)cn2c1 | Trypanosoma cruzi |  | 3T3 host cells, Tulahuen beta-galactosidase | 6 days | EC50 | > 20000 nM |
| CCCCCc1ccc2c(c1O)C(c1ccc(OC)c(OC)c1OC)OC2=O (stereo not shown) | Naegleria fowleri | parasite growth, resazurin | ATCC30808 | 48 h | IC90 | 56100 nM |
| COC1C=COC2(C)Oc3c(C)c(O)c4c(c3C2=O)C2=NC3(CCN(CC(C)C)CC3)NC2=C(NC(=O)C(C)=CC=CC(C)C(O)C(C)C(O)C(C)C(OC(=O)Nc2cccnn2)C1C)C4=O (stereo not shown) | Mycobacteroides abscessus |  | ATCC 19977 | CAMHB | IC50 | 28 nM |
| CC(C)C[C@H](NC(=O)[C@H](CCC(=O)O)NC(=O)[C@H](CC(=O)O)NC(=O)[C@H](C)NC(=O)[C@@H](N)Cc1c[nH]cn1)C(=O)N[C@H](C(=O)N[C@@H](C)C(=O)NCC(=O)N[C@H](C(=O)N[C@@H](CCCCN)C(=O)N[C@@H](CCC(N)=O)C(N)=O)C(C)C)C(C)C | Gram-negative bacteria |  |  | concentration not given | antibacterial activity | inactive |
| Cc1ccc(-c2cn([C@@H]3O[C@H](CO)[C@@H](O)[C@H]3O)c3ncnc(N)c23)cc1Cl | Trichomonas vaginalis | resorufin | G3, metronidazole-sensitive | 24 h + 2 h, 2% O2 | EC50 | 58 ± 77 nM |
| Cc1csc(NCc2cc(N(C)C)c3c(c2O)C(=O)C2=C(O)[C@]4(O)C(=O)C(C(N)=O)=C(O)[C@@H](N(C)C)[C@@H]4C[C@@H]2C3)n1 | Streptococcus pneumoniae |  | ATCC 700905, Tet M ribosome protection |  | MIC | 4 µg/mL (≈ 6.85 µM) |
| C[C@@H](c1ccn(Cc2c(F)cccc2F)n1)[C@](O)(Cn1cnnn1)c1ccc(F)cc1F | Candida tropicalis | growth, broth microdilution | 2718 | 24 h, 30 °C, ≥50% inhibition | MIC | < 0.008 µg/mL |
| C=C(C)[C@@H]1CC[C@]2(C(=O)N3CCN(C)CC3)CC[C@]3(C)[C@H](CC[C@@H]4[C@@]5(C)CCCNC(C)(C)[C@@H]5CC[C@]43C)[C@@H]12 | Human cytomegalovirus | cytopathic effect | HFF, AD169 | concentration not given | antiviral activity | inactive |
| CN(C)c1cc(CN2CCOCC2)c(O)c2c1C[C@H]1C[C@H]3[C@H](N(C)C)C(O)=C(C(N)=O)C(=O)[C@@]3(O)C(O)=C1C2=O | Streptococcus pneumoniae |  | ATCC 700905, Tet M ribosome protection |  | MIC | 0.25 µg/mL (≈ 0.449 µM) |
| CC[C@H](C)[C@H](NC(=O)[C@H](CCCN)NC(=O)[C@H](CC(N)=O)NC(=O)[C@H](CC(C)C)NC(=O)[C@H](Cc1ccccc1)NC(=O)[C@H](CCCN)NC(=O)[C@H](CCCCNC(=N)N)NC(=O)[C@H](CC(C)C)NC(=O)[C@H](CC(C)C)NC(=O)[C@H](CCCN)NC(=O)[C@H](CCCCNC(=N)N)NC(=O)[C@H](CC(C)C)NC(=O)CNC(C)=O)C(=O)N[C@@H](CCCN)C(=O)N[C@@H](CCCCNC(=N)N)C(N)=O | Gram-negative bacteria |  |  |  | geometric mean MIC | 6.25 µM |
| CN(C)c1cc(CNc2ccccc2)c(O)c2c1C[C@H]1C[C@H]3[C@H](N(C)C)C(O)=C(C(N)=O)C(=O)[C@@]3(O)C(O)=C1C2=O | Streptococcus pneumoniae |  | ATCC 700905, Tet M ribosome protection |  | MIC | 2 µg/mL (≈ 3.55 µM) |
| C[C@@H](c1ccn(Cc2c(F)ccc(F)c2F)n1)[C@](O)(Cn1cnnn1)c1ccc(F)cc1F | Candida tropicalis | growth, broth microdilution | 2718 | 24 h, 30 °C, ≥50% inhibition | MIC | < 0.008 µg/mL |

Some of these lines once more:
| SMILES | organism | test | system | conditions | measurement | result |
| --- | --- | --- | --- | --- | --- | --- |
| Cc1ccc2nc(-c3ccccc3)cn2c1 | Trypanosoma cruzi |  | 3T3 host cells, Tulahuen beta-galactosidase | 6 days | EC50 | > 20000 nM |
| CCCCCc1ccc2c(c1O)C(c1ccc(OC)c(OC)c1OC)OC2=O (stereo not shown) | Naegleria fowleri | parasite growth, resazurin | ATCC30808 | 48 h | IC90 | 56100 nM |
